Measured values pooled from the literature.
Every numbered part comes from another study and shows a few of its results, in no order.

Series 1
Target: Prothrombin, mature alpha-thrombin (F2, Homo sapiens, UniProt P00734)
Technique: aptamer microarray, sandwich
Form: DNA with 2'F-ANA
Sample: in vitro
Tested at: 200 nM
Notes: whole 15-mer aptamer, many near background
Added: Cy3 exosite-II aptamer, 400 nM
Direction: higher = stronger binding
Strand: GGTTGGTGTGGTTGG
| Modification | mean fluorescence intensity [a.u.] |
| --- | --- |
| 2'F-ANA at 2 4 5 7 8 10 | 67.3 |
| 2'F-ANA at 2 3 4 6 7 8 9 10 11 13 15 | 160 |
| 2'F-ANA at 2 3 4 5 6 7 8 9 13 | 63 |
| 2'F-ANA at 2 4 6 10 11 13 | 65.3 |
| 2'F-ANA at 1 2 3 4 5 6 7 10 13 15 | 45.9 |

Series 2
Target: Histone acetyltransferase KAT6A, winged helix 1, GST fusion (KAT6A, Homo sapiens, UniProt Q92794, residues 1-85)
Technique: protein binding microarray
Form: double-stranded DNA, one strand shown
Sample: in vitro
Tested at: not given
Notes: 8-mer, flanks averaged, mean of 2 arrays, mostly near background
Baseline: not given
Direction: higher = stronger binding
Construct (chain): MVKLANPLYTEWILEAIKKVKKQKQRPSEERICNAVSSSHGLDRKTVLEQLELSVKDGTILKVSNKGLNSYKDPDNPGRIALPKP
| Strand | E-score |
| --- | --- |
| ACCACTGC | -0.0627 |
| ATTCCAAC | -0.227 |
| AGAGAACT | -0.162 |
| ACGTTTCA | -0.107 |
| CCTAACGA | -0.0116 |
| CGTCAGAG | -0.0818 |

Series 3
Target: Interferon regulatory factor 7, full length, phosphomimetic (IRF7, Homo sapiens, UniProt Q92985, residues 1-503, S101K/S471D/S472D/S475D/S476D/S477D/S483D/S484D/S487D)
Technique: protein-binding microarray
Form: double-stranded DNA, one strand shown
Sample: in vitro
Tested at: 250 nM
Notes: 60-bp whole probe
Added: salmon DNA 0.4 mg/ml
Baseline: random background probes
Direction: higher = stronger binding
Shared flanks, not repeated: GCCTAGCAC … GTCTTGATTCGCTTGACGCTGCTG
Target sequence (chain): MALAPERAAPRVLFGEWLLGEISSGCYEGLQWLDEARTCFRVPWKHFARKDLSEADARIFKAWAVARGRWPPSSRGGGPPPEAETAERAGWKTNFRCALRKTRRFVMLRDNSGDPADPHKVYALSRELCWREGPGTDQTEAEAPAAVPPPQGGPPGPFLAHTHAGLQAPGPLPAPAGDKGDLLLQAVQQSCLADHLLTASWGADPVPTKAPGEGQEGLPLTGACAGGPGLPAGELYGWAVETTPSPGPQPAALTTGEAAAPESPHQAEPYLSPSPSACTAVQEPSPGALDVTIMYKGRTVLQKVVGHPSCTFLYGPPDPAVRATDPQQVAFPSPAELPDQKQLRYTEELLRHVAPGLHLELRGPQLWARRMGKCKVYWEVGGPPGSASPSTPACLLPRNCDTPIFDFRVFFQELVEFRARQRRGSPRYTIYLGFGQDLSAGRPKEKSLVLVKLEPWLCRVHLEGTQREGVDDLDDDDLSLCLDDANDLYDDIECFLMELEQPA
| Strand | log fluorescence [z-score] |
| --- | --- |
| GACGATTTCGGGTACCGAGACGTGCTA | 0.215 |
| GACGGTTTCGGGATTGGGGACGTGCTA | 7.13 |
| TTAGGTCTCCGTCTCCTTTAGTGCTAG | 0.325 |
| TTAGGAATCGGTATCGGTTAGTGCTAG | 2.24 |
| TTAGAACTGTGTCTCGATTAGTGCTAG | 0.411 |

Further values, each from its own experiment
| Substance | target | test | system | setting | scale | endpoint | value |
| --- | --- | --- | --- | --- | --- | --- | --- |
| PhoQ, residues 284 288 289 292 302 303 GNNTDL | PhoP, residues 12 14 15 18 19 NQGLL (Escherichia coli, UniProt P23836) | Sort-seq, measured: YFP reporter | E. coli | PhoQ-PhoP variant library, added: 10 µM Mg2+ | baseline: high Mg2+ state, higher = stronger signaling | fold induction | 1.21 |
